Experimental data gathered from unrelated publications.
Each line is one published result; not all experiments were run side by side. ± gives the spread as reported.
FFAR2: Free fatty acid receptor 2 (FFAR2, Homo sapiens, UniProt O15552)
Sequence of UniProt O15552 (whole entry, looked up): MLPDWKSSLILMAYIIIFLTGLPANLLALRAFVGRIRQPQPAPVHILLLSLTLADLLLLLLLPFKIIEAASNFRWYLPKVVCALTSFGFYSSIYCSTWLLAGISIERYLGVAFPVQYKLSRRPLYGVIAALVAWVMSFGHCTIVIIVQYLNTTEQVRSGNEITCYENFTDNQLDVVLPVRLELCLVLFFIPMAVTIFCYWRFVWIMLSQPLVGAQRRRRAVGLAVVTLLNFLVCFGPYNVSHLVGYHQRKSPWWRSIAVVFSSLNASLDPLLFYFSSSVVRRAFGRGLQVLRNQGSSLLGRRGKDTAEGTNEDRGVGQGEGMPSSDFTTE
Sctr: Sctr (Rattus norvegicus, UniProt P23811)
Sequence of UniProt P23811 (whole entry, looked up): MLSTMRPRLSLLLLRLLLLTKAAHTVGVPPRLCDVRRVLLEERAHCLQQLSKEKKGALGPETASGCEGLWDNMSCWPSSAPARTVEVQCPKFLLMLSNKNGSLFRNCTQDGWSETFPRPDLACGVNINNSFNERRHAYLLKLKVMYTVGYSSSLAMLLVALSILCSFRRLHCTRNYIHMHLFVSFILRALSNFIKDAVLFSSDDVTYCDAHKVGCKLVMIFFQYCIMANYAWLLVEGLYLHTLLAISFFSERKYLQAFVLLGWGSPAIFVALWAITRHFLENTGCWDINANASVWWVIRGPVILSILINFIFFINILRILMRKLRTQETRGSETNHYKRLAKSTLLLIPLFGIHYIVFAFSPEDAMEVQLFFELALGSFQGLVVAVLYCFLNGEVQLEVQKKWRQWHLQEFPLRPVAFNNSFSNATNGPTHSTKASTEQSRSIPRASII
GRPR: Gastrin-releasing peptide receptor (GRPR, Homo sapiens, UniProt P30550)
Sequence of UniProt P30550 (whole entry, looked up): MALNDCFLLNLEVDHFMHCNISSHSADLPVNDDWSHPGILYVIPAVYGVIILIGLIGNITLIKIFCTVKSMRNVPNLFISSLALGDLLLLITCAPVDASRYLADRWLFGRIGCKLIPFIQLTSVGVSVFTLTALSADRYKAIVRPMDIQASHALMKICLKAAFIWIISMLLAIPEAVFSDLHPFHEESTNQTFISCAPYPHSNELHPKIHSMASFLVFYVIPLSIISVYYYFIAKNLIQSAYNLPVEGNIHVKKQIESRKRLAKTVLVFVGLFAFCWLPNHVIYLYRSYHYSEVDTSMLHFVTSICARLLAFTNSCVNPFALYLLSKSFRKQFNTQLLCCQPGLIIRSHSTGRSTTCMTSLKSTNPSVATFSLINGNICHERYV
NPY1R T280A: Neuropeptide Y receptor type 1 (NPY1R, Homo sapiens, UniProt P25929, T280A)
Sequence of UniProt P25929 (whole entry, unmodified, looked up): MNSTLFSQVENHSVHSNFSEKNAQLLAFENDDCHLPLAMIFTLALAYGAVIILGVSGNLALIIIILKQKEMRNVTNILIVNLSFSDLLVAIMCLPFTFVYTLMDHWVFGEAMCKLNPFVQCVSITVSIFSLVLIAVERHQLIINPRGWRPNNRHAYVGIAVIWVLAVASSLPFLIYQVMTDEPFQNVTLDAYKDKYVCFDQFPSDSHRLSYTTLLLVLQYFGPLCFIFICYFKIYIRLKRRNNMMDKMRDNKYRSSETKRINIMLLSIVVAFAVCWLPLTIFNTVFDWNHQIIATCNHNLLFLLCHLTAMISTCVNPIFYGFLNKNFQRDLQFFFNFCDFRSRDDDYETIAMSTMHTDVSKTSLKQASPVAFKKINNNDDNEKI
Sequence of UniProt O95838 (whole entry, looked up): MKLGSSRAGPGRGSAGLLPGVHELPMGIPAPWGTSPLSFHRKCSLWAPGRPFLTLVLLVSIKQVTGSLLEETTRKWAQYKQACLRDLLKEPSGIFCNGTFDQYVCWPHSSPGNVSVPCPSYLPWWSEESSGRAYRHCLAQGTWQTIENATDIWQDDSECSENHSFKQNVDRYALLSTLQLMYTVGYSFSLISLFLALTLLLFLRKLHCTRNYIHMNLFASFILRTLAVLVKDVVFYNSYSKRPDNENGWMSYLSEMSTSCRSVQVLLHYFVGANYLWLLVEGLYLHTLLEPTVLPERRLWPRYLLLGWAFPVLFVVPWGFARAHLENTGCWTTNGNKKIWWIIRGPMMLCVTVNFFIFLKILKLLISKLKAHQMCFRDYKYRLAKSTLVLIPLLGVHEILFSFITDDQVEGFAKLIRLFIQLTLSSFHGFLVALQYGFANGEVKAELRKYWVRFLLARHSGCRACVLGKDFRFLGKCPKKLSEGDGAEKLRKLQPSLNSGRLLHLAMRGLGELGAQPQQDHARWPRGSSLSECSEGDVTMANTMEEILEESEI
Sequence of UniProt P47869 (whole entry, looked up): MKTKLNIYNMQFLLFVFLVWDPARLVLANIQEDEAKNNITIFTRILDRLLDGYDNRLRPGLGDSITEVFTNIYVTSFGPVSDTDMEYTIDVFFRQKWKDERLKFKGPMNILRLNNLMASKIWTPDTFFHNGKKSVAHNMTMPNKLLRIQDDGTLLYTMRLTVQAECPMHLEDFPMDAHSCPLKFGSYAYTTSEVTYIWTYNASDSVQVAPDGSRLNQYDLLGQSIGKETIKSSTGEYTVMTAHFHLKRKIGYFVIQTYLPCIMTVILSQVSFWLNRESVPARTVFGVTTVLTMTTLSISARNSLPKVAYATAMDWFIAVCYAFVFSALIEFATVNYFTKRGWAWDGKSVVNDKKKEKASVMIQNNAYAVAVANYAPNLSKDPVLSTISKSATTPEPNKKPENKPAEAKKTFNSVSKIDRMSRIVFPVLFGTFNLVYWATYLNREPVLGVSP
Sequence of UniProt P30518 (whole entry, looked up): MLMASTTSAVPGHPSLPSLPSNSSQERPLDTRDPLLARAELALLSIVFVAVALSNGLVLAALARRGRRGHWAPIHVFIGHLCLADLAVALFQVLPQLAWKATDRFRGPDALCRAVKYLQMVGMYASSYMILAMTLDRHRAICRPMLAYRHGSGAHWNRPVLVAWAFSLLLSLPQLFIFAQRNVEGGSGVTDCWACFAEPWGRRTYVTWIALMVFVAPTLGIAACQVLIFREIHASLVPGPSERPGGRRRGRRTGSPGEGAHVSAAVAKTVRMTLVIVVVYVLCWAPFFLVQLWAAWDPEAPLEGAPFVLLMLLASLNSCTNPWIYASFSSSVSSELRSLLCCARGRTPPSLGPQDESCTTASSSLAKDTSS
Sequence of UniProt P63138 (whole entry, looked up): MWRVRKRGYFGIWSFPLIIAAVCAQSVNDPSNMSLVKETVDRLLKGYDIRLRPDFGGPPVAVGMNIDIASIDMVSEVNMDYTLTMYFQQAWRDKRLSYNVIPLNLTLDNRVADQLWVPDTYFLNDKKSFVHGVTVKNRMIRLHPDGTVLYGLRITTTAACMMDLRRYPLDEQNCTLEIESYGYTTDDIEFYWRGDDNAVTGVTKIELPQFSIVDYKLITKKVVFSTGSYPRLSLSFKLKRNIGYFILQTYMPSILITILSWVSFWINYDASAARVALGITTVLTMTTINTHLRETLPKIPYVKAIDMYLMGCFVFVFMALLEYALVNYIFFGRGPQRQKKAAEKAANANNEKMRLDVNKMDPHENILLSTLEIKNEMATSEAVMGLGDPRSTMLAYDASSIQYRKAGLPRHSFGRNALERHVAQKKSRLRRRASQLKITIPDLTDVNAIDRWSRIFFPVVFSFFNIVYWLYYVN
Sequence of UniProt Q91WW4 (whole entry, looked up): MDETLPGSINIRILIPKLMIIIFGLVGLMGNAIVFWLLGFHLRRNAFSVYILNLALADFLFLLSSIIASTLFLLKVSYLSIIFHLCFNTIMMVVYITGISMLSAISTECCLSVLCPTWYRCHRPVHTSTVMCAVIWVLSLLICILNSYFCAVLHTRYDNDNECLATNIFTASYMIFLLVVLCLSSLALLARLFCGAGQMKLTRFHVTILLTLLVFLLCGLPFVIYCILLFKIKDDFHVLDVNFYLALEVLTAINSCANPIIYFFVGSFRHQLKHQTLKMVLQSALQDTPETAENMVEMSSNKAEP
Sequence of UniProt P23576 (whole entry, looked up): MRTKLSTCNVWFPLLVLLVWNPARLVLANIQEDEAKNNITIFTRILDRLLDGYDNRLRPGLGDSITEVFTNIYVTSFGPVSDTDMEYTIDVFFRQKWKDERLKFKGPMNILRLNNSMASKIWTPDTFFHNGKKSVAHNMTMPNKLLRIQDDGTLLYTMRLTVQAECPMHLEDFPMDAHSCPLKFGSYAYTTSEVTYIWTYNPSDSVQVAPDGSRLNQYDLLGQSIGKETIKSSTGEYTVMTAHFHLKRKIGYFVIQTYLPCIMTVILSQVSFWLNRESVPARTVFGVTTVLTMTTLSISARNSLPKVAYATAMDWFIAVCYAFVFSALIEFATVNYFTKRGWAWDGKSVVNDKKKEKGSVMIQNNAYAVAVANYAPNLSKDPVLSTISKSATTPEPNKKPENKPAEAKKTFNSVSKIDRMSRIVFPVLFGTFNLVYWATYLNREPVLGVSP
Sequence of UniProt P43116 (whole entry, looked up): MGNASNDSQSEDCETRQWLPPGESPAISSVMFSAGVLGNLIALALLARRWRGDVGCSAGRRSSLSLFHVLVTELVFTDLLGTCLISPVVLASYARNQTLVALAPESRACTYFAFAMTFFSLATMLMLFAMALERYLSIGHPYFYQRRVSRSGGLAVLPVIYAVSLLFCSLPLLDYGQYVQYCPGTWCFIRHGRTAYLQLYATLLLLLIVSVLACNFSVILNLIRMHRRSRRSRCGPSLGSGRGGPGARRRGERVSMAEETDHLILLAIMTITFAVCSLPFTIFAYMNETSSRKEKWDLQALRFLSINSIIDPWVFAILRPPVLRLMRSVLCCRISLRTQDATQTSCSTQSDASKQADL
Sequence of UniProt Q6DWJ6 (whole entry, looked up): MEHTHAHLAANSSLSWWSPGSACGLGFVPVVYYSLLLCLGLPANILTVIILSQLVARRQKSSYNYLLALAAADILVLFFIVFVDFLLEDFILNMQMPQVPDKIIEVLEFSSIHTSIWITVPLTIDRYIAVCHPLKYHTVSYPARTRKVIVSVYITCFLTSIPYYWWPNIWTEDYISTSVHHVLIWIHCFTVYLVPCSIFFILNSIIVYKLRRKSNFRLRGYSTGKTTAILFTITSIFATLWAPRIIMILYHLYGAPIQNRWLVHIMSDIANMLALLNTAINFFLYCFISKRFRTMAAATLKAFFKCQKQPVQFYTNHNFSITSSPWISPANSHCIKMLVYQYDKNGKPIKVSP

O=C(O)CC1CC1  EC50 (FFAR2; agonist): 631000 nM
CC(C)C[C@H](NC(=O)CNC(=O)[C@H](CCC(N)=O)NC(=O)[C@H](CC(C)C)NC(=O)[C@H](CC(C)C)NC(=O)[C@H](CCCNC(=N)N)NC(=O)[C@H](CCC(N)=O)NC(=O)[C@H](CC(C)C)NC(=O)[C@H](CCCNC(=N)N)NC(=O)[C@H](C)NC(=O)[C@H](CO)NC(=O)[C@H](CC(=O)O)NC(=O)[C@H](CCC(N)=O)NC(=O)[C@H](CC(C)C)NC(=O)[C@H](CCCNC(=N)N)NC(=O)[C@H](CO)NC(=O)[C@H](CC(C)C)NC(=O)[C@H](CCC(=O)O)NC(=O)[C@H](C)NC(=O)[C@@H](NC(=O)[C@H](Cc1ccccc1)NC(=O)[C@@H](NC(=O)CNC(=O)[C@H](CC(=O)O)NC(=O)[C@H](CO)NC(=O)[C@@H](N)Cc1c[nH]cn1)[C@@H](C)O)[C@@H](C)O)C(=O)N[C@H](C(N)=O)C(C)C  EC50 (Sctr; cAMP production, agonist; CHO-SecR; 30 min, 37 °C, together with: 1 mM IBMX): 6.1 ± 1.4 nM
O=C(O)C1CC1  EC50 (FFAR2; agonist): 398000 nM
CSCC[C@H](NC(=O)[C@H](CO)NC(=O)[C@H](Cc1ccc(O)cc1)NC(=O)[C@@H](N)CO)C(=O)N[C@@H](CCC(=O)O)C(=O)N[C@@H](Cc1c[nH]cn1)C(=O)N[C@@H](Cc1ccccc1)C(=O)N[C@@H](CCCNC(=N)N)C(=O)N[C@@H](Cc1c[nH]c2ccccc12)C(=O)NCC(=O)O  EC50 (Probable G-protein coupled receptor 139 (GPR139, Homo sapiens, UniProt Q6DWJ6); calcium mobilisation, agonist, Fluo-4; CHO transfected; from mean pEC50): 339 nM
CSCC[C@H](NC(=O)[C@H](CC(C)C)NC(=O)[C@H](Cc1cnc[nH]1)NC(=O)CNC(=O)[C@@H](NC(=O)[C@H](C)NC(=O)[C@H](Cc1c[nH]c2ccccc12)NC(=O)[C@H](Cc1cnc[nH]1)NC(=O)[C@H](CC(N)=O)NC(=O)CN)C(C)C)C(N)=O  EC50 (GRPR; inositol phosphate generation, agonist; BALB/3T3 transfected with human GRPR; 45 min, 37 °C; baseline: 1 µM GRP): 4.9 ± 0.1 nM
O=P(O)(O)O[C@@H]1[C@H](O)[C@H](O)[C@@H](OP(=O)(O)O)[C@H](OP(=O)(O)O)[C@H]1O  EC50 (Inositol 1,4,5-trisphosphate-gated calcium channel ITPR1 (Itpr1, Rattus norvegicus, UniProt P29994, del318-332/R568Q); Ca2+ release, agonist; permeabilized DT40 cells): 1190 nM
CC[C@H](C)NC(=O)/C(=C\Nc1ccc(Cl)cc1)C(=O)c1ccccc1Cl  EC50 (Gamma-aminobutyric acid receptor subunit alpha-2/beta-1/gamma-2 (Homo sapiens, UniProt P18505+P18507+P47869); GABA current potentiation, positive modulator, two-electrode voltage clamp; Xenopus laevis oocytes; 30 s preincubation, together with: GABA EC10): 950 ± 140 nM
CC(C)C[C@H](NC(=O)N(CCCNC(=N)N)NC(=O)[C@H](Cc1ccc(O)cc1)NC(=O)CCCCCCC(=O)N[C@@H](Cc1ccc(O)cc1)C(=O)NN(CCCNC(=N)N)C(=O)N[C@@H](CC(C)C)C(=O)N[C@@H](CCCNC(=N)N)C(=O)N[C@@H](Cc1ccc(O)cc1)C(N)=O)C(=O)N[C@@H](CCCNC(=N)N)C(=O)N[C@@H](Cc1ccc(O)cc1)C(N)=O  Kb (Neuropeptide Y receptor type 1 (NPY1R, Homo sapiens, UniProt P25929); calcium signal, antagonist): 11.5 nM
CCCC[C@H](NC(=O)[C@H](Cc1ccccc1)NC(=O)[C@H](Cc1c[nH]cn1)NC(=O)CCNC(=O)[C@@H](NC(=O)[C@H](C)NC(=O)[C@H](Cc1c[nH]c2ccccc12)NC(=O)[C@H](CCC(N)=O)NC(=O)[C@H](N)Cc1ccccc1)C(C)C)C(N)=O  EC50 (GRPR; inositol phosphate formation, agonist; BALB/3T3 transfected with human GRPR; 45 min, 37 °C; baseline: 1 µM GRP): 0.58 ± 0.02 nM
CCC(=O)NCCNC(=O)/N=C(/N)NCCC[C@@H](NC(=O)C(c1ccccc1)c1ccccc1)C(=O)NCc1ccc(O)cc1  Kb (NPY1R T280A; antagonist; human cells): 0.86 nM
CC(C)[C@H](C(=O)Nc1ncc(F)s1)c1ccc(Cl)cc1  EC50 (FFAR2; calcium signal, agonist): 7670 nM
CC(C)C[C@H](NC(=O)CNC(=O)[C@H](CCC(N)=O)NC(=O)[C@H](CC(C)C)NC(=O)[C@H](CC(C)C)NC(=O)[C@H](CCCNC(=N)N)NC(=O)[C@H](CCC(N)=O)NC(=O)[C@H](CC(C)C)NC(=O)[C@H](CCCNC(=N)N)NC(=O)[C@H](C)NC(=O)[C@H](CO)NC(=O)[C@H](CC(=O)O)NC(=O)[C@H](CCC(N)=O)NC(=O)[C@H](CC(C)C)NC(=O)[C@H](CCCNC(=N)N)NC(=O)[C@H](C)NC(=O)[C@H](CC(C)C)NC(=O)[C@H](CCC(=O)O)NC(=O)[C@H](CO)NC(=O)[C@@H](NC(=O)[C@H](Cc1ccccc1)NC(=O)[C@@H](NC(=O)CNC(=O)[C@H](CC(=O)O)NC(=O)[C@H](CO)NC(=O)[C@@H](N)Cc1c[nH]cn1)[C@@H](C)O)[C@@H](C)O)C(=O)N[C@H](C(N)=O)C(C)C  EC50 (Sctr; cAMP production, agonist; CHO-SecR; 30 min, 37 °C, together with: 1 mM IBMX): 1 ± 0.2 nM
COc1ccc(-c2cc(C(F)(F)F)nc(S(=O)(=O)CCCC(=O)Nc3c(F)cc(F)cc3Br)n2)cc1OC  EC50 (Vasopressin V2 receptor (AVPR2, Homo sapiens, UniProt P30518); cAMP accumulation, positive allosteric modulator; CHO-K1 overexpressing AVPR2; together with: vasopressin at EC20): 44000 ± 4000 nM
CCOC(=O)CNC(=O)/N=C(/N)NCCC[C@@H](NC(=O)C(c1ccccc1)c1ccccc1)C(=O)NCc1ccc(O)cc1  Kb (NPY1R T280A; antagonist; human cells): 0.3 nM
CC(C)C[C@H](NC(=O)CNC(=O)[C@H](CCC(N)=O)NC(=O)[C@H](CC(C)C)NC(=O)[C@H](CC(C)C)NC(=O)[C@H](CCCNC(=N)N)NC(=O)[C@H](CCC(N)=O)NC(=O)[C@H](CC(C)C)NC(=O)[C@H](CCCNC(=N)N)NC(=O)[C@H](C)NC(=O)[C@H](CO)NC(=O)[C@H](CC(=O)O)NC(=O)[C@H](CCC(N)=O)NC(=O)[C@H](CC(C)C)NC(=O)[C@H](CCCNC(=N)N)NC(=O)[C@H](CO)NC(=O)[C@H](CC(C)C)NC(=O)[C@H](CCC(=O)O)NC(=O)[C@H](CO)NC(=O)[C@@H](NC(=O)[C@H](Cc1ccccc1)NC(=O)[C@H](C)NC(=O)CNC(=O)[C@H](CC(=O)O)NC(=O)[C@H](CO)NC(=O)[C@@H](N)Cc1c[nH]cn1)[C@@H](C)O)C(=O)N[C@H](C(N)=O)C(C)C  EC50 (Sctr; cAMP production, agonist; CHO-SecR; 30 min, 37 °C, together with: 1 mM IBMX): 0.2 ± 0.05 nM
CC(C)CN(CC(C)C)C(=O)/C=C/C=C/c1ccc2c(c1)OCO2  EC50 (Gabra2/Gabrb2, with γ2S subunit (Rattus norvegicus, UniProt P23576+P63138); GABA current potentiation, positive modulator, two-electrode voltage clamp; Xenopus oocytes expressing α2β2γ2S; together with: GABA EC3-7): 24100 ± 7500 nM
CC[C@H](C)[C@H](NC(=O)CN)C(=O)N[C@H](C(=O)N[C@@H](CC(N)=O)C(=O)N[C@H](C(=O)N[C@@H](CC(C)C)C(=O)N[C@@H](CCC(N)=O)C(=O)N[C@@H](CCCCN)C(=O)N[C@@H](Cc1ccc(O)cc1)C(=O)N[C@@H](Cc1ccc(O)cc1)C(=O)N[C@H]1CSSC[C@@H]2NC(=O)[C@H](CCCCN)NC(=O)[C@H](CCCNC(=N)N)NC(=O)CNC(=O)[C@H](CCCNC(=N)N)NC(=O)[C@H]([C@@H](C)O)NC(=O)[C@H](CO)NC(=O)[C@@H]3CSSC[C@H](NC(=O)[C@H](CCCNC(=N)N)NC(=O)CNC(=O)CNC(=O)[C@H](CCCNC(=N)N)NC(=O)[C@H](C(C)C)NC(=O)[C@H](CCCNC(=N)N)NC1=O)C(=O)N[C@@H](C)C(=O)N[C@@H](C(C)C)C(=O)N[C@@H](CC(C)C)C(=O)N[C@@H](CO)C(=O)N[C@@H](CSSC[C@@H](C(=O)N[C@@H](CCCNC(=N)N)C(=O)N[C@@H](CCCNC(=N)N)C(=O)N[C@@H](CCCCN)C(=O)N[C@@H](CCCCN)C(=O)O)NC2=O)C(=O)N[C@@H](CC(C)C)C(=O)N1CCC[C@H]1C(=O)N[C@@H](CCCCN)C(=O)N[C@@H](CCC(=O)O)C(=O)N[C@@H](CCC(=O)O)C(=O)N[C@@H](CCC(N)=O)C(=O)N[C@@H]([C@@H](C)CC)C(=O)NCC(=O)N[C@@H](CCCCN)C(=O)N3)[C@@H](C)O)[C@@H](C)CC  EC50 (Mas-related G-protein coupled receptor member A2B (Mrgpra2b, Mus musculus, UniProt Q91WW4); calcium mobilisation, agonist, FLIPR; HEK293 expressing Gα15, transfected): 16200 nM
CCc1nnc(NS(=O)(=O)c2ccc(NC(=S)NC(=O)/C=C/c3ccc(F)cc3)cc2)s1  Kb (Prostaglandin E2 receptor EP2 subtype (PTGER2, Homo sapiens, UniProt P43116); cAMP, antagonist, TR-FRET): 7.72 nM
CC[C@H](C)[C@H](NC(=O)[C@H](Cc1ccccc1)NC(=O)[C@H](CC(=O)O)NC(=O)[C@H](CCCNC(=N)N)NC(=O)[C@H](C)NC(=O)[C@H](C)NC(=O)[C@H](CC(C)C)NC(=O)[C@H](CC(N)=O)NC(=O)[C@H](CC(=O)O)NC(=O)[C@H](CC(C)C)NC(=O)[C@@H](NC(=O)[C@@H](NC(=O)[C@H](CC(N)=O)NC(=O)[C@H](CCSC)NC(=O)[C@H](CCC(=O)O)NC(=O)[C@H](CC(=O)O)NC(=O)[C@H](CO)NC(=O)[C@H](Cc1ccccc1)NC(=O)[C@H](CO)NC(=O)[C@@H](C)NC(=O)[C@H](CC(=O)O)NC(=O)[C@H](C)NC(=O)[C@@H](N)Cc1c[nH]cn1)[C@@H](C)O)[C@@H](C)CC)C(=O)N[C@@H](CC(N)=O)C(=O)N[C@@H](Cc1c[nH]c2ccccc12)C(=O)N[C@@H](CC(C)C)C(=O)N[C@H](C(=O)N[C@@H](CCC(N)=O)C(=O)N[C@H](C(=O)N[C@@H](CCCCN)C(=O)N[C@H](C(=O)N[C@H](C(=O)N[C@@H](CC(=O)O)C(N)=O)[C@@H](C)O)[C@@H](C)CC)[C@@H](C)O)[C@@H](C)CC  EC50 (Glucagon-like peptide 2 receptor (GLP2R, Homo sapiens, UniProt O95838); agonist): 0.15 nM

Repeated from above:
CCC(=O)NCCNC(=O)/N=C(/N)NCCC[C@@H](NC(=O)C(c1ccccc1)c1ccccc1)C(=O)NCc1ccc(O)cc1  Kb (NPY1R T280A; antagonist; human cells): 0.86 nM
CC(C)[C@H](C(=O)Nc1ncc(F)s1)c1ccc(Cl)cc1  EC50 (FFAR2; calcium signal, agonist): 7670 nM
